Assay results gathered from unrelated publications.
± gives the spread as reported.
UniProt P06276, sequence (whole entry, looked up): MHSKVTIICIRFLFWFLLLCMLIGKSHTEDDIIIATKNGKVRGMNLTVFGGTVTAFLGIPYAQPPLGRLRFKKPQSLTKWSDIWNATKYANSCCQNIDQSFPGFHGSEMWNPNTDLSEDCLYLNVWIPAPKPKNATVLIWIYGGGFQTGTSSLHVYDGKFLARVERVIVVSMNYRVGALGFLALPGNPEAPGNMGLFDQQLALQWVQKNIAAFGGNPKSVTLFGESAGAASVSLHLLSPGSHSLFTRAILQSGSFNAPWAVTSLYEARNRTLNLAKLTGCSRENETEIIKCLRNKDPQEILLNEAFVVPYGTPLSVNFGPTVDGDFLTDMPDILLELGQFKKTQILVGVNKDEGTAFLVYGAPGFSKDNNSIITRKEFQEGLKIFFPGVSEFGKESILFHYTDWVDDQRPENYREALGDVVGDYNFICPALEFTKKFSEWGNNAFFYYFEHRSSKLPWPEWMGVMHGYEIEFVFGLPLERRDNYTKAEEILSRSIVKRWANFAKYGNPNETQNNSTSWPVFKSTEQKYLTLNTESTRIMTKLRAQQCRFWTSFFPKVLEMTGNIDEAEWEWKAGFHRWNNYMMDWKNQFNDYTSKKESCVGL

SMILES	tested on	assay	system	conditions	how to read	endpoint	result
CN1CCN(S(=O)(=O)c2cc([N+](=O)[O-])ccc2N(CCOS(C)(=O)=O)CCOS(C)(=O)=O)CC1	–	–	NSG mice female, plasma	intraperitoneal, 5 mg/kg, 1 h	–	concentration	20 nM
C[C@]1(CO)Cc2ncn(-c3ccc(C#N)c(Cl)c3)c2C(=O)O1	–	–	healthy Japanese adults, plasma	80 mg once daily, dosing interval 24 h	–	accumulation ratio of AUC	1.1
CN1CCN(c2ccc(Nc3nccc(-c4ccc(C#N)cc4)n3)cc2C(F)(F)F)CC1	–	–	Danio rerio embryos	5 µM, 5 d	–	toxicity	0%
Cc1ccccc1C(=O)NN=Cc1ccc(O)c(Br)c1	–	–	C3H/HeN mouse IN model, plasma	intravenous, 1.6 mg/kg	–	AUC(0-t)	325 ng·h/mL
CC(=O)c1c(C)c2cnc(Nc3ccc(C4CCN(CCS(C)(=O)=O)CC4)cn3)nc2n(C2CCCC2)c1=O	–	–	human, dose-escalation trial, plasma	oral, 50 mg twice daily, day 21, multiple doses	–	AUC(0-inf)	943 ng·h/mL
COc1ccc(-c2c(-c3ccc(C#N)c(F)c3)nc(N3CCC(N)CC3)n(C)c2=O)cc1F	–	item: Cholecystitis	human patients	oral, dose not given, dose escalation, NG	–	serious adverse event incidence	2%
c1cc(-c2ccc3ncnc(Nc4ncco4)c3c2)cc(N2C[C@H]3C[C@@H]2CO3)c1	–	–	human liver microsomes	–	–	CLint	47 µL/min/mg
CC(C)CC(=O)OC[C@H]1O[C@@](C#N)(c2ccc3c(N)ncnn23)[C@H](O)[C@@H]1O	–	–	mouse plasma	0.9 to 90 µM	–	fraction bound	0.836
C[C@]12C=CC(=O)C=C1CC[C@@H]1C2=CC[C@]2(C)[C@@H](C(=O)CN3CCN(c4cc(N5CCCC5)nc(N5CCCC5)n4)CC3)CC[C@@H]12	Plasmodium falciparum	–	HB3	–	–	IC50	1260 nM
CC(C)C[C@H](NC(=O)[C@H](CCCCN)NC(=O)OCC1c2ccccc2-c2ccccc21)C(=O)N[C@H](C(=O)N[C@@H](Cc1ccccc1)C(=O)N[C@@H](Cc1ccccc1)C(=O)N[C@@H](CCCCN)C(=O)NCC(=O)N[C@@H](Cc1ccccc1)C(=O)N[C@@H](C)C(=O)N[C@@H](Cc1c[nH]c2ccccc12)C(=O)N[C@@H](CC(N)=O)C(=O)N[C@H](C(=O)N[C@H]1CSSC[C@@H](C(=O)N[C@@H](Cc2c[nH]cn2)C(=O)N[C@@H](CCCNC(=N)N)C(=O)N[C@@H](CCCNC(=N)N)C(=O)N[C@@H](C)C(=O)N[C@@H](CC(N)=O)C(N)=O)NC(=O)[C@H](C(C)C)NC(=O)[C@H](CCCNC(=N)N)NC(=O)[C@H](C(C)C)NC(=O)CNC(=O)[C@H](CC(N)=O)NC(=O)[C@H](CCCNC(=N)N)NC(=O)[C@H](Cc2ccc(O)cc2)NC(=O)[C@H](C(C)C)NC1=O)C(C)C)C(C)C	–	–	ICR mouse, blood	intramammary, 10 mg/kg, day 5, 3 d dosing	–	haematocrit	39.7 ± 0.53%
CN1CC[C@@H](c2c(O)cc(O)c3c(=O)cc(-c4ccc(C(F)(F)F)cc4Cl)oc23)[C@@H]1CO	–	item: Thrombocytopenia	relapsed B-cell malignancies	oral, 200 mg, grade 3-4, intermittent dosing	–	patients with adverse event	0%
c1ccc2c(c1)ccc1c3ccccc3ccc21	–	–	fresh water	12 (unit not given), 20 °C, SSP sampler, 100 µm	–	log K(PDMS-water)	4.73 ± 0.01
C=CC(=O)Nc1cc(Nc2nccc(Nc3cc(Cl)c(F)cc3C(C)(C)O)n2)c(OC)cc1N1CC[C@@H](N(C)C)C1	–	–	human patients	oral, 100 mg, treatment-emergent adverse events	–	patients with AST increased	11.1%
COc1ccccc1N1CCN(CCN(C(=O)C2CCCCC2)c2ccccn2)CC1	Plasmodium falciparum	–	7G8	–	–	IC50	2000 nM
COc1cccc2c1CCCC2CCCN1CCN(C2CCCCC2)CC1 (stereo not drawn)	–	–	CD-1 mouse, male, plasma	intraperitoneal, 10 mg/kg	–	elimination rate constant	2.68e-05 s⁻¹
CC(C)C[C@@H]1NC(=O)CNC(=O)[C@H](CC(N)=O)NC(=O)[C@H](CCCNC(=N)N)NC(=O)[C@H]([C@@H](C)O)NC(=O)[C@@H]2CSSC[C@@H]3NC(=O)[C@H]([C@@H](C)O)NC(=O)CNC(=O)CNC(=O)[C@H](C(C)C)NC(=O)[C@@H]4CSSC[C@H](NC(=O)[C@H]([C@@H](C)O)NC(=O)[C@H](CSSC[C@H](NC(=O)[C@H](C(C)C)NC(=O)[C@@H]5CCCN5C1=O)C(=O)NCC(=O)N[C@@H](CCC(=O)O)C(=O)N[C@@H](CCCCN)C(=O)N4)NC(=O)CNC(=O)[C@@H]1CCCN1C(=O)[C@H]([C@@H](C)O)NC(=O)[C@H](CC(N)=O)NC3=O)C(=O)N[C@@H](CO)C(=O)N[C@@H](Cc1c[nH]c3ccccc13)C(=O)N1CCC[C@H]1C(=O)N[C@@H](C(C)C)C(=O)N2	–	HPLC	ammonium bicarbonate 0.1 M	180 µM, 7 days, pH 9.0, 37 °C, deamidation stability	–	remaining peptide	77 ± 2.7%
CC[C@H](C)[C@H](NC(=O)[C@H](CO)NC(=O)[C@H](CCCNC(=N)N)NC(C)=O)C(=O)N[C@H]1CSSC[C@@H](C(=O)N[C@H](C(N)=O)[C@@H](C)O)NC(=O)[C@H](CCCNC(=N)N)NC(=O)[C@H](Cc2c[nH]cn2)NC(=O)[C@H](C)NC(=O)CNC(=O)[C@H](Cc2c[nH]c3ccccc23)NC(=O)[C@H](CC(=O)O)NC(=O)[C@H](CCC(N)=O)NC(=O)[C@H](Cc2c[nH]c3ccccc23)NC(=O)[C@H](C(C)C)NC1=O	–	isocratic RP-HPLC	C18 column	pH 7.4, 25 °C, elution method 2	higher = more lipophilic	log retention factor	-0.306

SMILES	tested on	assay	system	conditions	how to read	endpoint	result
CC[C@H](C)[C@H](NC(=O)CN)C(=O)NCC(=O)N[C@@H](C)C(=O)N[C@H](C(=O)N[C@@H](CC(C)C)C(=O)N[C@@H](CCCCN)C(=O)N[C@H](C(=O)N[C@@H](CC(C)C)C(=O)N[C@H](C(=O)N[C@H](C(=O)NCC(=O)N[C@@H](CC(C)C)C(=O)N1CCC[C@H]1C(=O)N[C@@H](C)C(=O)N[C@@H](CC(C)C)C(=O)N[C@H](C(=O)N[C@@H](CO)C(=O)N[C@@H](Cc1c[nH]c2ccccc12)C(=O)N[C@H](C(=O)N[C@@H](CCCCN)C(=O)N[C@@H](CCCNC(=N)N)C(=O)N[C@@H](CCCCN)C(=O)N[C@@H](CCCNC(=N)N)C(=O)N[C@@H](CCC(N)=O)C(=O)N[C@@H](CCC(N)=O)C(N)=O)[C@@H](C)CC)[C@@H](C)CC)[C@@H](C)O)[C@@H](C)O)C(C)C)C(C)C	–	RP-HPLC	–	AOA-modified analogue	–	retention time	23.2 min
O=C(Nc1ccccc1)C1CCN(C(=O)Oc2cccnc2)CC1	–	adverse event reporting	healthy women	oral, 20 mg	–	subjects with Haematoma adverse event	7.1%
O=C(c1ccc(F)c(F)c1Nc1ccc(I)cc1F)N1CC(O)([C@@H]2CCCCN2)C1	–	–	human patients	oral, dose not given, dose escalation, tablet	–	treatment-related AE causing dose modification	17%
c1ccc2c(c1)-c1ccc3ccc4cccc5cc-2c1c3c45	–	–	PDMS-water partitioning	PAH compilation	relative to: maximum over minimum K	literature range factor	3
O=S(=O)(Nc1ccccc1)c1ccc(NC(=S)Nc2ccccc2)cc1	–	–	male mouse, blood	oral, 20 mg/kg daily, 14 days	–	potassium level	8.87 mmol/L
CC[C@H](C)CCCCC(=O)N[C@@H](CCN)C(=O)N[C@H](C(=O)N[C@@H](CCN)C(=O)N[C@H]1CCNC(=O)[C@H]([C@@H](C)O)NC(=O)[C@H](CCN)NC(=O)[C@H](CCN)NC(=O)[C@H](CC(C)C)NC(=O)[C@@H](Cc2ccccc2)NC(=O)[C@H](CCN)NC1=O)[C@@H](C)O	–	–	critically ill patients, plasma	intravenous, dose not given, 6 h, steady state, High AUC group, median	–	plasma concentration at 6 h	4570 ng/mL
CC(C)C[C@@H]1NC(=O)CNC(=O)[C@H](CC(N)=O)NC(=O)[C@H](CCCNC(=N)N)NC(=O)[C@H]([C@@H](C)O)NC(=O)[C@@H]2CSSC[C@@H]3NC(=O)[C@H]([C@@H](C)O)NC(=O)CNC(=O)CNC(=O)[C@H](C(C)C)NC(=O)[C@@H]4CSSC[C@H](NC(=O)[C@H]([C@@H](C)O)NC(=O)[C@H](CSSC[C@H](NC(=O)[C@H](C(C)C)NC(=O)[C@@H]5CCCN5C1=O)C(=O)NCC(=O)N[C@@H](CCC(=O)O)C(=O)N[C@@H]([C@@H](C)O)C(=O)N4)NC(=O)CNC(=O)[C@@H]1CCCN1C(=O)[C@H]([C@@H](C)O)NC(=O)[C@H](CC(N)=O)NC3=O)C(=O)N[C@@H](CO)C(=O)N[C@@H](CCCCN)C(=O)N1CCC[C@H]1C(=O)N[C@@H](C(C)C)C(=O)N2	–	HPLC	ammonium bicarbonate 0.1 M	180 µM, 7 days, pH 9.0, 37 °C, deamidation stability	–	remaining peptide	75.4 ± 1.7%
N#C[C@H](O[C@@H]1O[C@H](CO)[C@@H](O)[C@H](O)[C@H]1O)c1ccccc1	–	–	Sprague Dawley rat, plasma	oral, 10 g lyophilized powder/kg, high dose	–	Vz/F	25.7 ± 6.97 L/kg
COC(=O)C1=CCCN(C)C1	–	–	nude mice	intraperitoneal, up to 50 mg/kg/day, 4 weeks	relative to: vehicle	complete blood count	no effect
O[C@@](Cc1ncc(CC2(C(F)(F)F)CC2)[nH]1)(c1ccc(-n2cccn2)cc1)C(F)(F)F	Cholinesterase (BCHE, Homo sapiens, UniProt P06276)	inhibitor	–	–	–	IC50	4340 ± 500 nM
C=CCNc1c(O)cc2c(O)c1C[C@@H](C)C[C@H](OC)[C@H](O)[C@@H](C)/C=C(\C)[C@H](OC(N)=O)[C@@H](OC)/C=C\C=C(/C)C(=O)N2	–	–	unresectable or metastatic sarcoma	intravenous, 150 mg/m^2, grade 3-4 lab change	–	patients with ALT increase	0%
O=C(O)CCCOc1ccc(F)cc1-c1cc(-c2ccccc2C(F)(F)F)n(-c2ccccc2)n1	–	item: Basophils	Crl:CD(SD) rats, female, blood	iv, 25 µg/kg, 1 day	–	leukocyte differential	0.3 ± 0.1%
CC(C)C[C@H](NC(=O)[C@H](Cc1ccccc1)NC(=O)[C@H](Cc1ccccc1)NC(=O)Cc1ccc(-c2ccccc2)cc1)C(=O)N[C@@H](CCCCN)C(=O)N[C@@H](CCCNC(=N)N)C(=O)N[C@H](C(=O)N[C@@H](Cc1c[nH]c2ccccc12)C(=O)N[C@@H](CCCCN)C(=O)N[C@@H](CCCNC(=N)N)C(=O)O)C(C)C	–	–	monkey liver microsomes	–	–	hepatic clearance	41.2 mL/min/kg
CO[C@H]1C[C@@H]2CC[C@@H](C)[C@@](O)(O2)C(=O)C(=O)N2CCCC[C@H]2C(=O)O[C@H]([C@H](C)C[C@@H]2CC[C@@H](OC(=O)NCCOCCOCCOCCOCCOCCOCCOCCOCCC(=O)N3CCc4cc(Cn5nc(-c6ccc7oc(N)nc7c6)c6c(N)ncnc65)ccc4C3)[C@H](OC)C2)C[C@@H](O)[C@H](C)/C=C(\C)[C@@H](O)[C@@H](OC)C(=O)[C@H](C)C[C@H](C)/C=C/C=C/C=C/1C	–	–	patients with advanced solid tumours	intravenous, 16 mg weekly, any grade	–	nausea incidence	75%
Clc1ccc(-c2ccc(Cl)c(Cl)c2)c(Cl)c1	–	–	fresh water	20 °C, S100 sampler, 100 µm	–	log K(PDMS-water)	5.64 ± 0.04
CCN(CCO)CCCC(C)Nc1ccnc2cc(Cl)ccc12 (stereo not drawn)	–	–	newly diagnosed glioblastoma patients	oral, 200 mg/dose, grade 2, added: radiotherapy and temozolomide	–	anemia patients	33%

Some of these lines once more:
SMILES	tested on	assay	system	conditions	how to read	endpoint	result
CN1CCN(c2ccc(Nc3nccc(-c4ccc(C#N)cc4)n3)cc2C(F)(F)F)CC1	–	–	Danio rerio embryos	5 µM, 5 d	–	toxicity	0%
CC(C)C[C@@H]1NC(=O)CNC(=O)[C@H](CC(N)=O)NC(=O)[C@H](CCCNC(=N)N)NC(=O)[C@H]([C@@H](C)O)NC(=O)[C@@H]2CSSC[C@@H]3NC(=O)[C@H]([C@@H](C)O)NC(=O)CNC(=O)CNC(=O)[C@H](C(C)C)NC(=O)[C@@H]4CSSC[C@H](NC(=O)[C@H]([C@@H](C)O)NC(=O)[C@H](CSSC[C@H](NC(=O)[C@H](C(C)C)NC(=O)[C@@H]5CCCN5C1=O)C(=O)NCC(=O)N[C@@H](CCC(=O)O)C(=O)N[C@@H](CCCCN)C(=O)N4)NC(=O)CNC(=O)[C@@H]1CCCN1C(=O)[C@H]([C@@H](C)O)NC(=O)[C@H](CC(N)=O)NC3=O)C(=O)N[C@@H](CO)C(=O)N[C@@H](Cc1c[nH]c3ccccc13)C(=O)N1CCC[C@H]1C(=O)N[C@@H](C(C)C)C(=O)N2	–	HPLC	ammonium bicarbonate 0.1 M	180 µM, 7 days, pH 9.0, 37 °C, deamidation stability	–	remaining peptide	77 ± 2.7%
CC(=O)c1c(C)c2cnc(Nc3ccc(C4CCN(CCS(C)(=O)=O)CC4)cn3)nc2n(C2CCCC2)c1=O	–	–	human, dose-escalation trial, plasma	oral, 50 mg twice daily, day 21, multiple doses	–	AUC(0-inf)	943 ng·h/mL
O=C(Nc1ccccc1)C1CCN(C(=O)Oc2cccnc2)CC1	–	adverse event reporting	healthy women	oral, 20 mg	–	subjects with Haematoma adverse event	7.1%
O[C@@](Cc1ncc(CC2(C(F)(F)F)CC2)[nH]1)(c1ccc(-n2cccn2)cc1)C(F)(F)F	Cholinesterase (BCHE, Homo sapiens, UniProt P06276)	inhibitor	–	–	–	IC50	4340 ± 500 nM
